Experimental data of several laboratories.
Lines come from different studies, so protocols differ.
Target: Sodium-dependent dopamine transporter (Slc6a3, Rattus norvegicus, UniProt P23977)
Sequence of UniProt P23977 (whole entry, looked up): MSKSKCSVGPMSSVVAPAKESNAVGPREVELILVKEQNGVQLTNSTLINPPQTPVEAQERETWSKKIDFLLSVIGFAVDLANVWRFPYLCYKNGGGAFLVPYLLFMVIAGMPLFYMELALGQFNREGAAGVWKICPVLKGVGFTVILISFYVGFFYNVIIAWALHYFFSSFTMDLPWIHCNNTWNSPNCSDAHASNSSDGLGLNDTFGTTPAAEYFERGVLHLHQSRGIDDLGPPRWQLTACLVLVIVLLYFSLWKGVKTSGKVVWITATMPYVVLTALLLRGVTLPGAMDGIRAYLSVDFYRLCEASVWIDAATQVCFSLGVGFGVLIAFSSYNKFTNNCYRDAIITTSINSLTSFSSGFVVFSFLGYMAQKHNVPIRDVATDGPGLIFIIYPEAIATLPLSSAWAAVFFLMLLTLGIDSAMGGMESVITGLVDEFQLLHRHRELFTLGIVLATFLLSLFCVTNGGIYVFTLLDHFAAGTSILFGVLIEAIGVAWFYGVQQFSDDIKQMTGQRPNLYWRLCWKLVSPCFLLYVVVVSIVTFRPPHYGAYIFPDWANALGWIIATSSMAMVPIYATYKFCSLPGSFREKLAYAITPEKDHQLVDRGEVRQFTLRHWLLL

Cc1ccc([C@H]2OC(N)=N[C@H]2C)cc1 (relative stereo) — selectivity ratio (releaser; rat brain synaptosomes; reference: DAT over SERT): 4.3
O[C@H](CN1CC[C@H](CCOC(c2ccccc2)c2ccccc2)[C@@H](O)C1)c1ccccc1 — Ki (dopamine uptake, inhibitor; rat striatum; together with: [3H]dopamine): 1.06 nM
CC(N)Cc1ccc2occc2c1 (centres unmarked) — selectivity ratio ([3H]MPP+ release, releaser; rat brain synaptosomes; reference: DAT over SERT, higher = more DAT-selective): 0.61
CCCC(NCC)C(=O)c1ccc2c(c1)OCO2 (centres unmarked) — selectivity ratio (dopamine uptake; rat brain synaptosomes; reference: SERT IC50 over DAT IC50, higher = DAT selective): 10.4
CNC(C)C(=O)c1ccc(C(F)(F)F)cc1 (centres unmarked) — selectivity ratio (substrate release; rat brain synaptosomes; reference: SERT EC50 over target EC50): 0.07
CC(N)Cc1ccc2c(c1)OCO2 (racemic) — selectivity ratio ([3H]MPP+ release, releaser; rat brain synaptosomes; reference: DAT over NET, higher = more DAT-selective): 0.43
CNC(C)C(=O)c1ccc(Cl)cc1 (centres unmarked) — selectivity ratio (substrate release; rat brain synaptosomes; reference: SERT EC50 over target EC50): 3.4
O[C@@H](CN1CC[C@H](CCOC(c2ccccc2)c2ccccc2)[C@@H](O)C1)c1ccc(F)cc1 — Ki (dopamine uptake, inhibitor; rat striatum; together with: [3H]dopamine): 2.44 nM
